Published values of several laboratories.
Organism: Klebsiella pneumoniae

SMILES	test	test system	setting	MIC
c1ccc(OCCn2c(CNCC34CC5CC(CC(C5)C3)C4)nc3ccccc32)cc1	–	ATCC 700603	–	> 128 µg/mL
C[C@H]1COc2c(N3CCN(C)CC3)c(F)cc3c(=O)c(C(=O)O)cn1c23	agar dilution	ATCC 700603 ESBL	–	0.5 µg/mL
CC[C@H](C)CCCCC(=O)N[C@@H](CCN)C(=O)N[C@H](C(=O)N[C@@H](CCN)C(=O)N[C@H]1CCNC(=O)[C@H]([C@@H](C)O)NC(=O)[C@H](CCN)NC(=O)[C@H](CCN)NC(=O)[C@H](CC(C)C)NC(=O)[C@@H](CC(C)C)NC(=O)[C@H](CCN)NC1=O)[C@@H](C)O	broth microdilution	ATCC 27736, cation-adjusted Mueller-Hinton broth	18 to 20 h, 37 °C, 0.002% polysorbate 80	0.25 µg/mL
CO/N=C(\C(=O)N[C@@H]1C(=O)N2C(C(=O)O)=C(COC(C)=O)CS[C@H]12)c1csc(N)n1	–	ALE, CTX-M-15, Mueller-Hinton broth	overnight, 37 °C	8 µg/mL
C[C@H]1COc2c(N3CCN(C)CC3)c(F)cc3c(=O)c(C(=O)O)cn1c23	broth microdilution	KP	18 h	8 µg/mL
CO/N=C(\C(=O)N[C@@H]1C(=O)N2C(C(=O)O)=C(COC(C)=O)CS[C@H]12)c1csc(N)n1	broth microdilution	clinical isolate, Mueller-Hinton broth	24 h, 37 °C	100 µM
Cc1cc(NS(=O)(=O)c2ccc(N)cc2)no1	broth microdilution	NCTC 13438	24 h, 5% CO2	> 512 µg/mL
Cc1c(CN(C)C(=O)/C=C/c2cnc3c(c2)CC(CCN)C(=O)N3)oc2ccccc12.Cl (stereo not drawn)	broth microdilution	S47889	–	8 µg/mL
NC(=O)[C@@H]1CC[C@@H]2CN1C(=O)N2OS(=O)(=O)O	–	ATCC 1716 ESBL	compound alone	16 µg/mL
CO/N=C(\C(=O)N[C@@H]1C(=O)N2C(C(=O)O)=C(COC(C)=O)CS[C@H]12)c1csc(N)n1	broth microdilution	NCTC 13438	24 h, ambient air	128 µg/mL
COC(=O)[C@H]1[C@H]2C[C@@H]3c4[nH]c5cc(OC)ccc5c4CCN3C[C@H]2C[C@@H](OC(=O)c2cc(OC)c(OC)c(OC)c2)[C@@H]1OC	–	ATCC BAA-2146	–	> 128 µM
CO/N=C(\C(=O)N[C@@H]1C(=O)N2C(C(=O)O)=C(CSc3nc(=O)c(=O)[nH]n3C)CS[C@H]12)c1csc(N)n1	–	DOU CTX-M-15, Mueller Hinton broth	overnight, 37 °C	> 512 µg/mL
CO/N=C(\C(=O)N[C@@H]1C(=O)N2C(C(=O)O)=CCS[C@H]12)c1csc(N)n1	broth microdilution	BNCC 359393	–	> 64 µg/mL
O=C(O)c1ccc(NCc2cccc([N+](=O)[O-])c2)cc1	broth microdilution	–	–	64 µg/mL
N=C(N)c1ccc(OCCC(CCOc2ccc(C(=N)N)cc2)c2ccccc2)cc1 (stereo not drawn)	–	ATCC 13883	compound alone	> 200 µg/mL
Cc1c(CN(C)C(=O)/C=C/c2cnc3c(c2)CCC(=O)N3)oc2ccccc12	broth microdilution	AR-0560	–	> 32 µg/mL
CNC(C)C1CCC(N)C(OC2C(N)CC(N)C(OC3OCC(C)(O)C(NC)C3O)C2O)O1 (stereo not drawn)	broth microdilution	BNCC 359393	–	> 64 µg/mL
CC[C@H]1OC(=O)[C@H](C)[C@@H](O[C@H]2C[C@@](C)(OC)[C@@H](O)[C@H](C)O2)[C@H](C)[C@@H](O[C@@H]2O[C@H](C)C[C@H](N(C)C)[C@H]2O)[C@](C)(O)C[C@@H](C)C(=O)[C@H](C)[C@@H](O)[C@]1(C)O	broth microdilution	ATCC 43816 acrAB knockout	–	4 µg/mL
COc1ccccc1CNc1ccc(C(=O)O)cc1	broth microdilution	–	–	64 µg/mL
C[C@@H](O)[C@H]1C(=O)N2C(C(=O)O)=C(S[C@@H]3CN[C@H](C(=O)N(C)C)C3)[C@H](C)[C@H]12	broth microdilution, MH medium	NCCP 16054	16 h, 37 °C, growth inhibition over 99%	0.5 µM
Cc1c(CN(C)C(=O)/C=C/c2cnc3c(c2)CC(NC(=O)OC(C)(C)C)C(=O)N3)oc2ccccc12 (stereo not drawn)	broth microdilution	AR-0555	–	> 32 µg/mL
CN(C)c1ccc(CNc2ccc(C(=O)O)cc2)cc1	broth microdilution	–	–	64 µg/mL
Cc1onc(-c2ccccc2)c1C(=O)N[C@@H]1C(=O)N2[C@@H]1SC(C)(C)[C@@H]2C(=O)O	–	ALE CTX-M-15, Mueller Hinton broth	overnight, 37 °C	> 512 µg/mL

SMILES	test	test system	setting	MIC
C[C@@H](O)[C@H]1C(=O)N2C(C(=O)O)=C(SCCN=CN)C[C@H]12	broth microdilution	NCTC 13438	24 h, ambient air	128 µg/mL
CSc1ccc(CNc2ccc(C(=O)O)cc2)cc1	broth microdilution	–	–	256 µg/mL
O=C(Cc1ccccc1)N[C@@H]1C(=O)N2C(C(=O)O)=C(CSc3cccc4cccnc34)C[S+]([O-])[C@H]12 (stereo partly drawn)	–	11228	–	16 µg/mL
CC(C)(O/N=C(\C(=O)N[C@@H]1C(=O)N2C(C(=O)[O-])=C(C[n+]3ccccc3)CS[C@H]12)c1csc(N)n1)C(=O)O	broth microdilution	NCTC 13438	24 h, ambient air	512 µg/mL
O=C(Cc1ccccc1)N[C@@H]1C(=O)N2C(C(=O)O)=C(CSc3cccc4cccnc34)CS(=O)(=O)[C@H]12	–	N11-2218	–	> 128 µg/mL
O=C(O)c1cn(C2CC2)c2cc(N3CCNCC3)c(F)cc2c1=O	–	DOU CTX-M-15, Mueller Hinton broth	overnight, 37 °C	> 512 µg/mL
FC(F)(F)Oc1ccc(OCCn2c(CNCC34CC5CC(CC(C5)C3)C4)nc3ccccc32)cc1	–	ATCC 700603	–	> 128 µg/mL
O=C(O)[C@H]1/C(=C/CO)O[C@@H]2CC(=O)N21	–	ATCC 700603 ESBL	compound alone	64 µg/mL
CN(C)[C@@H]1C(O)=C(C(N)=O)C(=O)[C@@]2(O)C(O)=C3C(=O)c4c(O)cccc4[C@@](C)(O)[C@H]3C[C@@H]12	broth microdilution	NCTC 13438	24 h, 5% CO2	4 µg/mL
CCn1cc(C(=O)O)c(=O)c2cc(F)c(N3CCNCC3)cc21	broth microdilution	KP	18 h	8 µg/mL
CC(C)C[C@@H]1NC(=O)[C@@H](Cc2ccccc2)NC(=O)[C@H](CCN)NC(=O)[C@@H](NC(=O)[C@H](CCN)NC(=O)[C@@H](N)[C@@H](C)O)CCNC(=O)[C@H]([C@@H](C)O)NC(=O)[C@H](CCN)NC(=O)[C@H](CCN)NC1=O	–	ATCC 13883	compound alone	> 200 µg/mL
COc1cccc(CNc2ccc(C(=O)O)cc2)c1	broth microdilution	–	–	64 µg/mL
C[C@H]1COc2c(N3CCN(C)CC3)c(F)cc3c(=O)c(C(=O)O)cn1c23	broth microdilution	NCTC 13438	24 h, 5% CO2	128 µg/mL
CCN1CCN(C(=O)N[C@@H](C(=O)N[C@@H]2C(=O)N3[C@@H]2SC(C)(C)[C@@H]3C(=O)O)c2ccccc2)C(=O)C1=O	broth microdilution	clinical isolate, Mueller-Hinton broth	24 h, 37 °C	200 µM
[H]/N=C(/N)N[C@H]1[C@H](O)[C@@H](O)[C@H](O[C@@H]2O[C@@H](C)[C@](O)(C=O)[C@H]2O[C@@H]2O[C@@H](CO)[C@H](O)[C@@H](O)[C@@H]2NC)[C@@H](N/C(N)=N\[H])[C@@H]1O	–	DOU CTX-M-15, Mueller Hinton broth	overnight, 37 °C	> 512 µg/mL
CN(C)c1cc(NC(=O)CNC(C)(C)C)c(O)c2c1C[C@H]1C[C@H]3[C@H](N(C)C)C(O)=C(C(N)=O)C(=O)[C@@]3(O)C(O)=C1C2=O	broth microdilution	ATCC 43816 acrAB knockout	–	< 0.5 µg/mL
Cc1cc(-c2cn[nH]c2-c2cccc(OCc3cccc(C#N)c3)c2)cc(C)n1	broth microdilution	ATCC BAA-1705	–	4 µg/mL
N=C(N)c1ccc(OCc2ccccc2COc2ccc(C(=N)N)cc2)cc1	–	ATCC 13883	compound alone	> 200 µg/mL
CNC(C)C1CCC(N)C(OC2C(N)CC(N)C(OC3OCC(C)(O)C(NC)C3O)C2O)O1 (stereo not drawn)	broth microdilution	NCTC 13438	24 h, ambient air	2 µg/mL
[H]/N=C(/N)N[C@H]1[C@H](O)[C@@H](O)[C@H](O[C@@H]2O[C@@H](C)[C@](O)(C=O)[C@H]2O[C@@H]2O[C@@H](CO)[C@H](O)[C@@H](O)[C@@H]2NC)[C@@H](N/C(N)=N\[H])[C@@H]1O	broth microdilution	ATCC 43816 acrAB knockout	–	2 µg/mL
O=C(N[C@H](CO)[C@H](O)c1ccc([N+](=O)[O-])cc1)C(Cl)Cl	broth microdilution	NCTC 13438	24 h, ambient air	64 µg/mL
O=C(N[C@H](CO)[C@H](O)c1ccc([N+](=O)[O-])cc1)C(Cl)Cl	broth microdilution	ATCC 43816 acrAB knockout	–	1 µg/mL

Some of these lines once more:
SMILES	test	test system	setting	MIC
CO/N=C(\C(=O)N[C@@H]1C(=O)N2C(C(=O)O)=CCS[C@H]12)c1csc(N)n1	broth microdilution	BNCC 359393	–	> 64 µg/mL
C[C@H]1COc2c(N3CCN(C)CC3)c(F)cc3c(=O)c(C(=O)O)cn1c23	broth microdilution	KP	18 h	8 µg/mL
O=C(O)c1ccc(NCc2cccc([N+](=O)[O-])c2)cc1	broth microdilution	–	–	64 µg/mL
Cc1c(CN(C)C(=O)/C=C/c2cnc3c(c2)CC(NC(=O)OC(C)(C)C)C(=O)N3)oc2ccccc12 (stereo not drawn)	broth microdilution	AR-0555	–	> 32 µg/mL
COc1cccc(CNc2ccc(C(=O)O)cc2)c1	broth microdilution	–	–	64 µg/mL
C[C@@H](O)[C@H]1C(=O)N2C(C(=O)O)=C(SCCN=CN)C[C@H]12	broth microdilution	NCTC 13438	24 h, ambient air	128 µg/mL
[H]/N=C(/N)N[C@H]1[C@H](O)[C@@H](O)[C@H](O[C@@H]2O[C@@H](C)[C@](O)(C=O)[C@H]2O[C@@H]2O[C@@H](CO)[C@H](O)[C@@H](O)[C@@H]2NC)[C@@H](N/C(N)=N\[H])[C@@H]1O	–	DOU CTX-M-15, Mueller Hinton broth	overnight, 37 °C	> 512 µg/mL
O=C(Cc1ccccc1)N[C@@H]1C(=O)N2C(C(=O)O)=C(CSc3cccc4cccnc34)CS(=O)(=O)[C@H]12	–	N11-2218	–	> 128 µg/mL
